Assay results from different studies.
A part holds a random share of what one study measured.
Chain of UniProt P10721 (whole entry, unmodified, looked up): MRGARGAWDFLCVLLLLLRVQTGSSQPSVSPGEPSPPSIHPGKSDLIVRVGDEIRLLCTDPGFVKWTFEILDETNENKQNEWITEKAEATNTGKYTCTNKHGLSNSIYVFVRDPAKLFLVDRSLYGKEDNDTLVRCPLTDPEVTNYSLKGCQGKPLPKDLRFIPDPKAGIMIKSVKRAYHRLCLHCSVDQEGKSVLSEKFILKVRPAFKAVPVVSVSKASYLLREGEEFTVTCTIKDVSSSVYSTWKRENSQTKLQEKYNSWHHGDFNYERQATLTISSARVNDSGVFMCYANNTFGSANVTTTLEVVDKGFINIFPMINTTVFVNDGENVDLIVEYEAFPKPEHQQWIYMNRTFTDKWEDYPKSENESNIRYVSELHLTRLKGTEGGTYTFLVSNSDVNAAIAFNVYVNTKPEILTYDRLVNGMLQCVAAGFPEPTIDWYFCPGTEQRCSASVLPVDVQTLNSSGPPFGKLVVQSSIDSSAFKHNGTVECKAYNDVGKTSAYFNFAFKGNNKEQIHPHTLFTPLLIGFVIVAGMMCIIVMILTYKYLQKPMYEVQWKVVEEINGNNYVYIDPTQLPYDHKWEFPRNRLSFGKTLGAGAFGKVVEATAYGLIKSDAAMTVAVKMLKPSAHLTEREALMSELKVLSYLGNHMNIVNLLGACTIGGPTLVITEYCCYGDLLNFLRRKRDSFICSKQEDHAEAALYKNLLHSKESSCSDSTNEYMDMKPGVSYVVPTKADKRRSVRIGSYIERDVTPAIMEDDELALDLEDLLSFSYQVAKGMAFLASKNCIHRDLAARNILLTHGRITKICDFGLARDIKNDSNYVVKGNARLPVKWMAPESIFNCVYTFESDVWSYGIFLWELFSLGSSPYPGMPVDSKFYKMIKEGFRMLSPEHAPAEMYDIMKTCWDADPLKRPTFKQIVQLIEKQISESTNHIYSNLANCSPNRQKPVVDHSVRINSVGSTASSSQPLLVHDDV
Chain of UniProt P42336 (whole entry, unmodified, looked up): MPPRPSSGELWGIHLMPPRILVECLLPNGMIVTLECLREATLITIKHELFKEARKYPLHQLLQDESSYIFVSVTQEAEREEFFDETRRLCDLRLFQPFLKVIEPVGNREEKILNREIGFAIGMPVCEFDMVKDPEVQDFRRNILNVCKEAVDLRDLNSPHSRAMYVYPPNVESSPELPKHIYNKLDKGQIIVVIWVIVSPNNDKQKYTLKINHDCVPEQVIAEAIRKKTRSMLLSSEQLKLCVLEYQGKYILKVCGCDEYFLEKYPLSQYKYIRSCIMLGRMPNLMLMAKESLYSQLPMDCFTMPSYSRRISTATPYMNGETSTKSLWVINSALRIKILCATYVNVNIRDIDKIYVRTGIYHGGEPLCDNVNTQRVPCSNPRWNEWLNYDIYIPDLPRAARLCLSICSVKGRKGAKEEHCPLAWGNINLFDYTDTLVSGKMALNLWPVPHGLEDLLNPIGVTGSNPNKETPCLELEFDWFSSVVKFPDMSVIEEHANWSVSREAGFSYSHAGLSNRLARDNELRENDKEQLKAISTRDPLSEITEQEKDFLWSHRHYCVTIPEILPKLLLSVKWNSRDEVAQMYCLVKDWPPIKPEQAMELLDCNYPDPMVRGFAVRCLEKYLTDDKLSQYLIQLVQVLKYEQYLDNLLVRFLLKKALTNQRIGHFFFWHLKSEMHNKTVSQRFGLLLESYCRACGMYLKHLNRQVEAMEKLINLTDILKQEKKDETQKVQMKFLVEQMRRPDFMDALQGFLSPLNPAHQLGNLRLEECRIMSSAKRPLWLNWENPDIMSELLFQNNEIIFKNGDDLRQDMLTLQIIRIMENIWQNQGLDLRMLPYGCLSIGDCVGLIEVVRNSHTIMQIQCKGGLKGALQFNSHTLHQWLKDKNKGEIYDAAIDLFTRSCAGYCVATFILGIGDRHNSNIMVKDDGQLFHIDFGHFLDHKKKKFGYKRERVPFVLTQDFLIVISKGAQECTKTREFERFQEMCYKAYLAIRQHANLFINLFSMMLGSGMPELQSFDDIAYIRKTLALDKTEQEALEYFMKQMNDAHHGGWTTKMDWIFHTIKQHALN
Chain of UniProt O60331 (whole entry, looked up): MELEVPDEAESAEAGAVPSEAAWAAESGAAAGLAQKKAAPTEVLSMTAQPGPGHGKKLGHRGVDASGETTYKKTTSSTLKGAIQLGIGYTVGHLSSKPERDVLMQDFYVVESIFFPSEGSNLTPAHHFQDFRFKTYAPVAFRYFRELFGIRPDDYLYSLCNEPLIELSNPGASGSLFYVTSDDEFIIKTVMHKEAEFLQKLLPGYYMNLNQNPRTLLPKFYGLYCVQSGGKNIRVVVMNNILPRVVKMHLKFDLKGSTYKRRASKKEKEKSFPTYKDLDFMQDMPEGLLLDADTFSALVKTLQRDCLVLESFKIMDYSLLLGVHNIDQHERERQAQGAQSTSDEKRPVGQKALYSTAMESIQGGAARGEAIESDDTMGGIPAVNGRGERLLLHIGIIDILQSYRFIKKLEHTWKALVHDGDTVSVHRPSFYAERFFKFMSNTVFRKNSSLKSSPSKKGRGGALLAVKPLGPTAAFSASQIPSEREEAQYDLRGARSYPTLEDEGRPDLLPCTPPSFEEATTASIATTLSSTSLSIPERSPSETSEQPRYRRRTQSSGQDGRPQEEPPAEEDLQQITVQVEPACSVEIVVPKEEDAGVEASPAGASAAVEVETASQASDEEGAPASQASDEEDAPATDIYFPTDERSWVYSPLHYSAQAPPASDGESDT
Chain of UniProt P28482 (whole entry, looked up): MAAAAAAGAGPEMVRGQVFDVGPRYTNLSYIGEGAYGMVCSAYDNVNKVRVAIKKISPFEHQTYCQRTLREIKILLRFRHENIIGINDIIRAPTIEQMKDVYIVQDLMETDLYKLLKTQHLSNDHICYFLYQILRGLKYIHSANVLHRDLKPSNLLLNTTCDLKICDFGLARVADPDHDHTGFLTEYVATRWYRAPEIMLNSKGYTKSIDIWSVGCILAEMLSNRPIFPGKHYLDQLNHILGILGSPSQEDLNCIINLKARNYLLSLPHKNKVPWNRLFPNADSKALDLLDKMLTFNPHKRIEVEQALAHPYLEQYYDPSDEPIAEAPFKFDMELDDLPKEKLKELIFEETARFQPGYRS
Chain of UniProt P22607 (whole entry, looked up): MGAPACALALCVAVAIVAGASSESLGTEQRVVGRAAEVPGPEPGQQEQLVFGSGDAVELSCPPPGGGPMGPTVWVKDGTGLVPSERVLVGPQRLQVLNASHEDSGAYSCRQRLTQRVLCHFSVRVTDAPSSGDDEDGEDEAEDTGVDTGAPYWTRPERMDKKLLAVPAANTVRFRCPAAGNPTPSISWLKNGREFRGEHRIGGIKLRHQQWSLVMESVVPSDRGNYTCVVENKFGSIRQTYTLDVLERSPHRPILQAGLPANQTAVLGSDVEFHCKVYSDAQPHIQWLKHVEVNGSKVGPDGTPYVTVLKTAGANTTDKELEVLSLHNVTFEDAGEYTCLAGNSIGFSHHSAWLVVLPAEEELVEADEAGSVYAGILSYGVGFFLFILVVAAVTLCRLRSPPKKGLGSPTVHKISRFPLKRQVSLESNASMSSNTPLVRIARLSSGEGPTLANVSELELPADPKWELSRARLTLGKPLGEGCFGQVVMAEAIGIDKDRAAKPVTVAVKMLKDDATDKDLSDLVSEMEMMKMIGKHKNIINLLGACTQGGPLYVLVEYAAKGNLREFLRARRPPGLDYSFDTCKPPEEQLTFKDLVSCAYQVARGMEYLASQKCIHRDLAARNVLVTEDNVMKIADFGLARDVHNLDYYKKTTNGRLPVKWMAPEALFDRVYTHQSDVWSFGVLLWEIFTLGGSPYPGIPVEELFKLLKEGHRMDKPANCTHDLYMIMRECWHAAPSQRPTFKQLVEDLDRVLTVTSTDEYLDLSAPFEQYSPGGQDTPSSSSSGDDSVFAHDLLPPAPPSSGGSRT
Chain of UniProt Q9BRS2 (whole entry, looked up): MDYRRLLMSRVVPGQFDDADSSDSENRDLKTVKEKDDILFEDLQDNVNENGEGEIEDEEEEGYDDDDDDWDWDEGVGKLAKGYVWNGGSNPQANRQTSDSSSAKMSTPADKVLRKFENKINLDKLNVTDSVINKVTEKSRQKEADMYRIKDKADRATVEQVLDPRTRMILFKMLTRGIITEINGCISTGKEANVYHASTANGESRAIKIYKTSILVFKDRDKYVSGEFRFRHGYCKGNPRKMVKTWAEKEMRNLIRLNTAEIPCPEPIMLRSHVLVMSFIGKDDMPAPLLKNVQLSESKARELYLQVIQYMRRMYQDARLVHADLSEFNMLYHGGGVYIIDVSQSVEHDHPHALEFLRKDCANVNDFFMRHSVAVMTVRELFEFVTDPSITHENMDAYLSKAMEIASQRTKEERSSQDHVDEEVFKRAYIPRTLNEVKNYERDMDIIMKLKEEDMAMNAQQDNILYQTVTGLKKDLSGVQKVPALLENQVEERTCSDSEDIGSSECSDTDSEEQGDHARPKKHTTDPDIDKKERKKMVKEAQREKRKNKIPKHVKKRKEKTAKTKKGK
Chain of UniProt P45983 (whole entry, looked up): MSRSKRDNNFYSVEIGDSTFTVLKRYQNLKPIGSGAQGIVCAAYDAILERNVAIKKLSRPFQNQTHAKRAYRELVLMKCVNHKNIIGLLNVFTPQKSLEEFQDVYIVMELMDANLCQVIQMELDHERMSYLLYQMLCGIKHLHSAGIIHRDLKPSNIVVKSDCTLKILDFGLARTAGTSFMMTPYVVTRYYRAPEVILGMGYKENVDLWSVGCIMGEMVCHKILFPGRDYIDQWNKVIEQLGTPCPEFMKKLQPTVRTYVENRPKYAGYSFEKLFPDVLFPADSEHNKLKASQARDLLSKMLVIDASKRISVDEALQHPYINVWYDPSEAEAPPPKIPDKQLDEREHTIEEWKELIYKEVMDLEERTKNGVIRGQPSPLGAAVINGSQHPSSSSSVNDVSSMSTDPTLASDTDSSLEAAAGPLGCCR

Study 1 — organism: Plasmodium berghei; mode: inhibitor; cells: Huh-7; strain: GFP-expressing, liver stage; concentration: 10 µM; time: 24 h; baseline: untreated control
Structure (SMILES)	infection rate [%]
CC(=O)OCC(=O)[C@@]1(O)CC[C@H]2[C@@H]3CCC4=CC(=O)C=C[C@]4(C)[C@H]3[C@@H](O)C[C@@]21C	110
C=CCCCCCCCCC(=O)O	78.4
Nc1ccc(C(=O)O)cc1	106
Cc1cc(C)nc(NS(=O)(=O)c2ccc(N)cc2)n1	123
O=c1[nH]c(=O)n([C@H]2C[C@H](O)[C@@H](CO)O2)cc1C(F)(F)F	81.8
CC(C)(C)NC[C@H](O)COc1nsnc1N1CCOCC1	96
CCN1CCCC1CNC(=O)c1cc(S(N)(=O)=O)ccc1OC (stereo not shown)	82
CC1COc2c(N3CCN(C)CC3)c(F)cc3c(=O)c(C(=O)O)cn1c23 (stereo not shown)	91.1

Study 2 — method: competition with immobilised ligand; concentration: 1 µM
SMILES: CN1CCN(c2cnc3c(C4CCN(C(=O)c5ccc(OC(F)(F)F)cc5N)CC4)ncnc3c2)CC1
target	read-out	remaining binding [%]
EPHA4 (Homo sapiens, UniProt P54764)	cell-free assay	100
CDKL5 (Homo sapiens, UniProt O76039)	binding	93
RIOK1 (Homo sapiens, UniProt Q9BRS2)	cell-free assay	100
PIP5K1C (Homo sapiens, UniProt O60331)	cell-free assay	100
PRKCE (Homo sapiens, UniProt Q02156)	cell-free assay	100
FGFR3 (Homo sapiens, UniProt P22607)	cell-free assay	100
MAP3K20 (Homo sapiens, UniProt Q9NYL2)	cell-free assay	98
KIT (Homo sapiens, UniProt P10721, V559D)	cell-free assay	99
PIK3CA (Homo sapiens, UniProt P42336, I800L)	cell-free assay	100
WNK1 (Homo sapiens, UniProt Q9H4A3)	cell-free assay	100
MAPK1 (Homo sapiens, UniProt P28482)	cell-free assay	94
ALK (Homo sapiens, UniProt Q9UM73, L1196M)	cell-free assay	100
PRKCQ (Homo sapiens, UniProt Q04759)	cell-free assay	91
MAPK8 (Homo sapiens, UniProt P45983)	cell-free assay	97
CDK18 (Homo sapiens, UniProt Q07002)	cell-free assay	100

Study 3 — cell line: HaCaT; concentration: 100 µM; time: 18 h
Structure (SMILES)	viability
Cc1c(O)c(=O)n(-c2ccccc2)n1C	112%
COc1cc(CCC(=O)O)ccc1O	110%
CNCCc1ccccn1	107%
CCCc1nc2c(C)cc(-c3nc4ccccc4n3C)cc2n1Cc1ccc(-c2ccccc2C(=O)O)cc1	99.1%
Nc1nc(Cl)nc2c1ncn2[C@H]1C[C@H](O)[C@@H](CO)O1	107%
NS(=O)(=O)Cc1noc2ccccc12	96.4%
CCOC(=O)O[C@]1(C(=O)OCCl)CC[C@H]2[C@@H]3CCC4=CC(=O)C=C[C@]4(C)[C@H]3[C@@H](O)C[C@@]21C	89.9%
CCOC(=O)C1=C(C)NC(C)=C(C(=O)OC)C1c1cccc(Cl)c1Cl (stereo not shown)	16.7%
CC1(C)O[C@@H]2C[C@H]3[C@@H]4C[C@H](F)C5=CC(=O)C=C[C@]5(C)[C@H]4[C@@H](O)C[C@]3(C)[C@]2(C(=O)CO)O1	98.5%
Cc1nc(-c2ccc(OCC(C)C)c(C#N)c2)sc1C(=O)O	97.1%

Other studies, line by line
SMILES	host	dose	setting	endpoint	result
CC(C)n1cnc(-c2ccc(F)cc2)c1-c1ncc(C(=O)Nc2ccc(N3CCN(C)CC3)cc2)[nH]1	IPF patients	60 mg once daily	adverse event	Anaemia incidence	0%
